Experimental data of several laboratories.
A part holds a random share of what one study measured.

Sample 1 — technique: protein-binding microarray; form: double-stranded DNA, one strand shown; medium: in vitro; concentration: 940 nM top; setting: 60-bp whole probe; together with: salmon DNA 0.4 mg/ml; baseline: random background probes; direction: higher = stronger binding; constant ends, left off below: GCCTAGCAC … GTCTTGATTCGCTTGACGCTGCTG
Target: Interferon regulatory factor 5, full length, phosphomimetic (IRF5, Homo sapiens, UniProt Q13568-2, residues 1-514, S451D/S453D/S456D/S462D)
Oligonucleotide	fitted relative affinity
GTAGAACTGGGGTTTCGATTAGTGCTA	5.32 z-score
TTAGGACTGGGGACTGTGTTAGTGCTA	-0.462 z-score
TTAGGTCCCGGTCTCGGTTAGTGCTAG	2.28 z-score
GACGGTCTCCTCCTGCTGACGTGCTAG	0.257 z-score
TTTATTTTTACATTATTACCGTGCTAG	0.914 z-score
GACGGTCTCCTACTGCTGTCGTGCTAG	0.4 z-score
ATAATTTTTCTAGTGGTTGCGTGCTAG	0.354 z-score
AGAGCTAAGTGAGTGTCATCGTGCTAG	-0.793 z-score
ATGATGTGTCAAAAATTGCAGTGCTAG	-0.812 z-score
AAAAATGATTGGTTGAACATGTGCTAG	-0.579 z-score
GACGGTATCCTTTTCCTGACGTGCTAG	0.769 z-score
TCAGATTCCAGTTTCGATTAGTGCTAG	8.72 z-score
GACGGTTTCGACTATCGTGACGTGCTA	8.05 z-score
CTTTCTTTATGCACTCTTTACGTGCTA	2.19 z-score
GACTATCTCAGTTTCGAGACGTGCTAG	4.16 z-score
GACGGTATCCTTCTCCTGACGTGCTAG	0.781 z-score
GACGAACTGAGGATCGAGACGTGCTAG	-0.256 z-score
TACCCTTTGAAAGTTGTTTTAGTGCTA	-0.0291 z-score
TTAGGTTTCCTTTCCGTTTAGTGCTAG	2.13 z-score
TTAGATATCAGTATCGATAAGTGCTAG	4.2 z-score
CCCTGAGGAATCCTGCAGCCGTGCTAG	-0.366 z-score
TCACTCTTCTTTTGCTAACTGTGCTAG	1.61 z-score
TAAGGACTGGGGTTTCGGTTAGTGCTA	5.69 z-score
TCATTTTTCTAATTGAAACTGTGCTAG	0.652 z-score

Sample 2 — technique: universal PBM; form: double-stranded DNA, one strand shown; medium: in vitro; concentration: not given; direction: higher = stronger binding
Target: Sal-like protein 4, full length isoform B (SALL4, Homo sapiens, UniProt Q9UJQ4-2, residues 1-616)
Setting: 8-mer, flanks averaged, mean of replicates
Oligonucleotide	E-score
AAATCGTC	0.116
TCTGGAAA	0.13
AATGTTGA	0.202
AATCTAGG	0.117
GGAGGGCA	-0.0836
CACCCCAC	-0.0921
AAAATGGT	0.251
CCAAACTA	0.0741
CGGGAGTA	-0.0508
TACAGCTA	-0.0333
CCACAGCA	-0.0903
ATCGGTGG	-0.164
GGGCCGCA	-0.304
CTGATTCC	-0.13
AACCAGCC	-0.0962
TTCAGGAA	-0.0468
AGAAAGAG	-0.0741
GAACTTGA	0.0478
TTAAAGAA	0.27
CCAGAACC	-0.128
CGTTAGGC	-0.156
AGATACAG	0.208
AGTGATAC	0.0846
CGATCCTA	-0.0985
ACTGTTCT	0.104

Sample 3 — technique: protein binding microarray; form: double-stranded DNA, one strand shown; medium: in vitro; concentration: not given; baseline: not given; direction: higher = stronger binding
Target: Histone acetyltransferase KAT6A, both winged helices, GST fusion (KAT6A, Homo sapiens, UniProt Q92794, residues 1-181)
Setting: 8-mer, flanks averaged, mean of 2 arrays, mostly near background
Construct (chain): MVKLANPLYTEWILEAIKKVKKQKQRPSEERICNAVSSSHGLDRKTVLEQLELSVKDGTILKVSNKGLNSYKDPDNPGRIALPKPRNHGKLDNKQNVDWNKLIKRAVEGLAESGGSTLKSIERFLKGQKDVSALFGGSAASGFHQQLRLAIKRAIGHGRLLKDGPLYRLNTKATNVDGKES
Oligonucleotide	E-score
GAGTTAGA	-0.0919
ACACAGGG	0.0123
ACCGGAGA	0.0444
CCGTACTC	0.106
CCTCCAAC	-0.205
CTGTAGGC	-0.0859
CTATATCC	-0.143
AGGCTATA	-0.154
AAGCGCGT	0.304
AGGCAGAT	-0.17
AGATGCCG	0.209
AAAACTTT	-0.0781
CTTACGGC	0.268
AACATCCT	0.117
ATCATAGA	-0.16
ACAACTCT	-0.271
ATAAGCAG	-0.208
ACACAGTG	-0.098
GCTGGGCA	-0.121
AGCGGCCG	0.39
TAAGGCAA	-0.153
GATAAGAC	0.0315

Sample 4 — technique: RNA Bind-n-Seq; form: RNA; medium: in vitro; concentration: not given; baseline: input RNA pool; direction: higher = stronger binding
Target: RING finger protein unkempt homolog, zinc fingers 1-6, GST-SBP tag (UNK, Homo sapiens, UniProt Q9C0B0, residues 30-357)
Setting: RNA with constant flanks, human and mouse sites, ends assumed
Constant ends, left off below: GGGAGUUCUACAGUCCGACGAUC … CAACAGAGGAUUGAGCAUCA
Construct (chain): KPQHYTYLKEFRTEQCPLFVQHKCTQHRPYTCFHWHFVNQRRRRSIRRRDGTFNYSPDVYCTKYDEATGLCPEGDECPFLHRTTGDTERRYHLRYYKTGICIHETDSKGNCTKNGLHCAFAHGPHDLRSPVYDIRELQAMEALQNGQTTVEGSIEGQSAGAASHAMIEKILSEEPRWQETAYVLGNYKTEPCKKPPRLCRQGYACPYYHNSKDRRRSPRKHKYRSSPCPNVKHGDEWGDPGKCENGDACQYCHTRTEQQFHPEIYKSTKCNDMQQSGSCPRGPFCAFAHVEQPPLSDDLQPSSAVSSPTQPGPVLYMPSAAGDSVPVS
Oligonucleotide	bound/input enrichment
AAUGUUCAUAUUUUGAGUAAAGGAAGCUAAAACCAUGUUUGCUUUCUGGUACUACAUGCAUUAGCGAAAGGUUAAGUAAGUUUUGUUCUCCACUGAAGUAAUACUUAACAUCUCAGAAAA	0.186 ratio
UGUAUUAAAUCAAUUUAUCACUGUUUGAAGCUUUGAAUACCUGCAAUCUUUGCCAAGAUACUUUUUUAUUUAAAAAAAUAACUGUGUAAAUAUUACCCUGUAAUAUUAUAUAUACUUAAU	0.386 ratio
AUGAUGAAAGGCGAGUUUUAUGUCAUUGAAUAUGCUGCUUGUGAUGCCACUUACAAUGAAAUAGUCACAUUUGAACGACUUCGGCCUGUCAAUCAAAAUAAAACUGUCAAAAAAAAUACC	0.284 ratio
GCGUUUAUCUGUUGCACUUUUCAUGUCUGUUUGUCUCCCAAGUGUCGGCUACCCUGCCCUCAGAUAUAGGCCGGUUUUAUUUCUUGCUUUGGGUGUUUUGUUUGCCGUAUAUCUGUACAA	0.347 ratio
AAUAAAGAUGCUCCUCUUCCUGAUGGUCAGAGCCUGCAGGGAACACUGGUCAGCAAAAUCACCUUCCAGCACCCUGGCCGAGUUCCUCUUAUCUUGAAUAUGAUCAGACACCAAGUGGCC	0.287 ratio
CCUCCUUUUGCAACUGGACUGCCUCACUAUGGACAUAUACUUGCGGGUACAAUUAAAGAUAUAGUUACAAGAUAUGCUCACCAGAGUGGGUUUCAUGUUGACAGAAGAUUUGGAUGGGAU	1.16 ratio
CAGAGAGCCUUUUACUUCAGAAUAUUGGGGGUGUGGAAACCUCACCUCUUUUUUUCUGCACUUUGUAGCAUCUGACUGACUAAAUGGUUGUCCUCGGUACCAAAAAGGCUGCCAUACAAU	0.194 ratio
GCUAAGUGCACCUUGAAACGAUACACCAAUCAGACCUUUGAUAAGGUGAUGGGUCCCAUGUUGGAUGCUGCUACCAGAAAACCCAUCUGGCGACAUGAAAUUUUAGAUGCAGAUGGCAUU	0.3 ratio
UCCUACAAUAAGCAGAUGCGACCUGCAAUUUUAGAUCACUGUUCGGGAAAUAAGUGGACAAACACAUCUCAUCACCCUGAGUAUUUAGUAGGAGAAGAGGCCUUGUAUGUUAAUCCACUG	0.416 ratio
GCUCUGACUGUAUAGAGAGGGGUGUGCACAUAUGUCCCCACCCUCCGGUCUUCCUUUCCUUUUAGGGUGACACUACAGAGUCAUUCAGCCAAAUCCGUCUACUGCCUCUCCUCCUCAGCC	0.272 ratio
AAGACAGAACAGUACGUGGAGCUCCACAAAGGCGAGGUGGUGGAUGUCAUGGUCAUUGGACGGCUAUGAUGGUCACCAGCAGGAGAAAGCUUUGAUGCAUGUCCACAUAUCAUUGACUGU	0.0824 ratio

Sample 5 — technique: RNA Bind-n-Seq; form: RNA; medium: in vitro; concentration: 365 nM; baseline: no-protein control; direction: higher = stronger binding
Target: RNA binding protein fox-1 homolog 2, RRM domain, GST-SBP tag (RBFOX2, Homo sapiens, UniProt O43251-10, residues 100-194)
Setting: natural RNA segment, single round, ends assumed
Constant ends, left off below: GGGAGUUCUACAGUCCGACGAUC … UGGAAUUCUCGGGUGCCAA
Construct (chain): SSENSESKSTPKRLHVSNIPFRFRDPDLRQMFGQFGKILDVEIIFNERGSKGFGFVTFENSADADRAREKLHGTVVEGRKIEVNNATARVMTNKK
Oligonucleotide	RBNS enrichment (R)
UGGGGCCUGGAGUCUGGUGCUGUUCCCCAGCCAGCCUGGCUGCAGACCUCUCUGGCUGAUACCGCUCUUCUUCUUUAAUUGGACUUCAUAUCAAGCCUCUGCCUUGGUUU	0.438
CAUGUUGUAGAGCCUUUUCUUAGGUGGAGUAUUUCUGAAGGCUUUAAAAUCAUUACAAUAAAAACCCAAAUUGGAACUAUCUCCUCCCUUUACCCCUUUCCCUUAAUUCC	0.804
GAGUUUUCUUCCAAAAGCACUGUUUCCAGUCUGAGUAGGAGCUACCAGCCUGUGGCAAUCAGCAGGGAAAGACAGGUGCUCCUGUCAUAGGGGCUUGAGCUACCACAGCU	0.302
GUGUAGUAUACCUGUACAUACUUGUUUCAGGCAGCCUUUCUUUAAUGUUUUCAGUUGGUUUGUAUUCUGUAGCUCAGUAGCUGCUAAUAAAGUUAAAGAUCCUGUGUCCU	0.354
CCUUUUCAUAGCUGGAUCUUCCGUGAAGUGUUCCUUUUGGUGGUUUGGAUUUUUUUUUUUUUUAAAUAAAGACCUUAUCUGCCGAAUUUAAUUGUAGAGAUUUGAACCCG	0.333
AAGAAGUUUAUUCUCAUUUGGGAGAUCUGGUGAUCUCCCAAGCUAUCUAAAGUUUGUUAGAUAGCUGCAUGUGGCUUUUUUAAAAAAGCAACAGAAACCUAUCCUCACUG	5.19
UAAAUCCAAUGAGUACUACCCCACCCAUCUUGAUGAAUAUCAAUAUCUUCAGGACUGCAAUCAUUCUGCCUAUAGGUCAGAACUGAGCUAGGAUGGAAUCUUGAAACAUA	0.339
UCUUCCAGCCAAAACGGGAAAAGUGGCUGACUUCACUGCAUUAGAAGAGGAAAAGUCCAACUCCUUAGGGAGUCUGAGCCUGGCACGGGCUUGGGGAAAGAAGGCUGCAG	0.595
ACAGAAAGCCUCAGCUACCUCAGCAUUUUGUUGAUGCUUAUUUAGAUGAGAUGGAUCAAGGUAAAAAUGACCCAUCAUCUACUUUCUCCAAAGAAAACCUAAUUUUCUCA	0.342
GUUUUGUUGUUGUUUUGAGACAGGGUUUCUUUGUGUAGCCCUGACUGUUCUGGAACUUGCUCUGAAGACCAGGCUGACCUCGAACUCAGAGAUCUGCCUGCCUCUGCUUC	0.316
UGGGCAGGAGGGCUUGUGCAGGGUUUUGUAAGCAGUGAUCUAGUUUCAUUAAAAAAAGAAAACAAUACCAUAACCACCUCCCCGUGUCUGUCUGCACCAGGAGCACCUGG	0.323
AAGGCAUUCCUUGUUUUUAACUAAUAUUUGCACAUUUUCUUAGUCUCCUUCCUGAUGGUCGCCCGUCCUCCCCUUUUGACGGAUGGUAUUCUUUCCUAACUCCCUCUGUU	1.48

A few entries again (sample 5):
Oligonucleotide	RBNS enrichment (R)
UGGGCAGGAGGGCUUGUGCAGGGUUUUGUAAGCAGUGAUCUAGUUUCAUUAAAAAAAGAAAACAAUACCAUAACCACCUCCCCGUGUCUGUCUGCACCAGGAGCACCUGG	0.323
CCUUUUCAUAGCUGGAUCUUCCGUGAAGUGUUCCUUUUGGUGGUUUGGAUUUUUUUUUUUUUUAAAUAAAGACCUUAUCUGCCGAAUUUAAUUGUAGAGAUUUGAACCCG	0.333
UAAAUCCAAUGAGUACUACCCCACCCAUCUUGAUGAAUAUCAAUAUCUUCAGGACUGCAAUCAUUCUGCCUAUAGGUCAGAACUGAGCUAGGAUGGAAUCUUGAAACAUA	0.339
GAGUUUUCUUCCAAAAGCACUGUUUCCAGUCUGAGUAGGAGCUACCAGCCUGUGGCAAUCAGCAGGGAAAGACAGGUGCUCCUGUCAUAGGGGCUUGAGCUACCACAGCU	0.302
UGGGGCCUGGAGUCUGGUGCUGUUCCCCAGCCAGCCUGGCUGCAGACCUCUCUGGCUGAUACCGCUCUUCUUCUUUAAUUGGACUUCAUAUCAAGCCUCUGCCUUGGUUU	0.438
UCUUCCAGCCAAAACGGGAAAAGUGGCUGACUUCACUGCAUUAGAAGAGGAAAAGUCCAACUCCUUAGGGAGUCUGAGCCUGGCACGGGCUUGGGGAAAGAAGGCUGCAG	0.595
GUUUUGUUGUUGUUUUGAGACAGGGUUUCUUUGUGUAGCCCUGACUGUUCUGGAACUUGCUCUGAAGACCAGGCUGACCUCGAACUCAGAGAUCUGCCUGCCUCUGCUUC	0.316
CAUGUUGUAGAGCCUUUUCUUAGGUGGAGUAUUUCUGAAGGCUUUAAAAUCAUUACAAUAAAAACCCAAAUUGGAACUAUCUCCUCCCUUUACCCCUUUCCCUUAAUUCC	0.804
AAGAAGUUUAUUCUCAUUUGGGAGAUCUGGUGAUCUCCCAAGCUAUCUAAAGUUUGUUAGAUAGCUGCAUGUGGCUUUUUUAAAAAAGCAACAGAAACCUAUCCUCACUG	5.19
AAGGCAUUCCUUGUUUUUAACUAAUAUUUGCACAUUUUCUUAGUCUCCUUCCUGAUGGUCGCCCGUCCUCCCCUUUUGACGGAUGGUAUUCUUUCCUAACUCCCUCUGUU	1.48
